{"data": "Assay results pooled from the literature", "EPHX2": "Bifunctional epoxide hydrolase 2 (EPHX2, Homo sapiens, UniProt P34913)", "CBL SH2 domain": "E3 ubiquitin-protein ligase CBL, SH2 domain (CBL, Homo sapiens, UniProt P22681)", "note": "Compare with care: the assays were run in different laboratories. “And” joins repeats or separate records; there may be more than shown. ± gives the spread as reported.", "UniProt P34913, sequence (whole entry, looked up)": "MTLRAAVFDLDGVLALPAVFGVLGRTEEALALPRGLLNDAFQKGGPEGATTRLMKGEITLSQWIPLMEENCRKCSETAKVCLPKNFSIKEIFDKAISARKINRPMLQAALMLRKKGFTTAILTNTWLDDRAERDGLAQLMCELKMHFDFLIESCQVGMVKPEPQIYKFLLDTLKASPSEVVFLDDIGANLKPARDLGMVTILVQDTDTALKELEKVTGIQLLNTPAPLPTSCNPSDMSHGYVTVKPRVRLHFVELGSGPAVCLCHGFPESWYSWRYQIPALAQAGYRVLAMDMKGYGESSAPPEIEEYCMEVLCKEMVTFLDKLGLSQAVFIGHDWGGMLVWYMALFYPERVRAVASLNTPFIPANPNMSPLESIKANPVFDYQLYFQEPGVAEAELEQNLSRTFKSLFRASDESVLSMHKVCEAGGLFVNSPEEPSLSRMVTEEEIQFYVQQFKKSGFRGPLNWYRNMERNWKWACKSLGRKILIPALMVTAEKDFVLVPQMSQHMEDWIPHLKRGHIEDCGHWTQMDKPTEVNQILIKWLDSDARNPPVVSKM", "UniProt Q9BYW2, sequence (whole entry, looked up)": "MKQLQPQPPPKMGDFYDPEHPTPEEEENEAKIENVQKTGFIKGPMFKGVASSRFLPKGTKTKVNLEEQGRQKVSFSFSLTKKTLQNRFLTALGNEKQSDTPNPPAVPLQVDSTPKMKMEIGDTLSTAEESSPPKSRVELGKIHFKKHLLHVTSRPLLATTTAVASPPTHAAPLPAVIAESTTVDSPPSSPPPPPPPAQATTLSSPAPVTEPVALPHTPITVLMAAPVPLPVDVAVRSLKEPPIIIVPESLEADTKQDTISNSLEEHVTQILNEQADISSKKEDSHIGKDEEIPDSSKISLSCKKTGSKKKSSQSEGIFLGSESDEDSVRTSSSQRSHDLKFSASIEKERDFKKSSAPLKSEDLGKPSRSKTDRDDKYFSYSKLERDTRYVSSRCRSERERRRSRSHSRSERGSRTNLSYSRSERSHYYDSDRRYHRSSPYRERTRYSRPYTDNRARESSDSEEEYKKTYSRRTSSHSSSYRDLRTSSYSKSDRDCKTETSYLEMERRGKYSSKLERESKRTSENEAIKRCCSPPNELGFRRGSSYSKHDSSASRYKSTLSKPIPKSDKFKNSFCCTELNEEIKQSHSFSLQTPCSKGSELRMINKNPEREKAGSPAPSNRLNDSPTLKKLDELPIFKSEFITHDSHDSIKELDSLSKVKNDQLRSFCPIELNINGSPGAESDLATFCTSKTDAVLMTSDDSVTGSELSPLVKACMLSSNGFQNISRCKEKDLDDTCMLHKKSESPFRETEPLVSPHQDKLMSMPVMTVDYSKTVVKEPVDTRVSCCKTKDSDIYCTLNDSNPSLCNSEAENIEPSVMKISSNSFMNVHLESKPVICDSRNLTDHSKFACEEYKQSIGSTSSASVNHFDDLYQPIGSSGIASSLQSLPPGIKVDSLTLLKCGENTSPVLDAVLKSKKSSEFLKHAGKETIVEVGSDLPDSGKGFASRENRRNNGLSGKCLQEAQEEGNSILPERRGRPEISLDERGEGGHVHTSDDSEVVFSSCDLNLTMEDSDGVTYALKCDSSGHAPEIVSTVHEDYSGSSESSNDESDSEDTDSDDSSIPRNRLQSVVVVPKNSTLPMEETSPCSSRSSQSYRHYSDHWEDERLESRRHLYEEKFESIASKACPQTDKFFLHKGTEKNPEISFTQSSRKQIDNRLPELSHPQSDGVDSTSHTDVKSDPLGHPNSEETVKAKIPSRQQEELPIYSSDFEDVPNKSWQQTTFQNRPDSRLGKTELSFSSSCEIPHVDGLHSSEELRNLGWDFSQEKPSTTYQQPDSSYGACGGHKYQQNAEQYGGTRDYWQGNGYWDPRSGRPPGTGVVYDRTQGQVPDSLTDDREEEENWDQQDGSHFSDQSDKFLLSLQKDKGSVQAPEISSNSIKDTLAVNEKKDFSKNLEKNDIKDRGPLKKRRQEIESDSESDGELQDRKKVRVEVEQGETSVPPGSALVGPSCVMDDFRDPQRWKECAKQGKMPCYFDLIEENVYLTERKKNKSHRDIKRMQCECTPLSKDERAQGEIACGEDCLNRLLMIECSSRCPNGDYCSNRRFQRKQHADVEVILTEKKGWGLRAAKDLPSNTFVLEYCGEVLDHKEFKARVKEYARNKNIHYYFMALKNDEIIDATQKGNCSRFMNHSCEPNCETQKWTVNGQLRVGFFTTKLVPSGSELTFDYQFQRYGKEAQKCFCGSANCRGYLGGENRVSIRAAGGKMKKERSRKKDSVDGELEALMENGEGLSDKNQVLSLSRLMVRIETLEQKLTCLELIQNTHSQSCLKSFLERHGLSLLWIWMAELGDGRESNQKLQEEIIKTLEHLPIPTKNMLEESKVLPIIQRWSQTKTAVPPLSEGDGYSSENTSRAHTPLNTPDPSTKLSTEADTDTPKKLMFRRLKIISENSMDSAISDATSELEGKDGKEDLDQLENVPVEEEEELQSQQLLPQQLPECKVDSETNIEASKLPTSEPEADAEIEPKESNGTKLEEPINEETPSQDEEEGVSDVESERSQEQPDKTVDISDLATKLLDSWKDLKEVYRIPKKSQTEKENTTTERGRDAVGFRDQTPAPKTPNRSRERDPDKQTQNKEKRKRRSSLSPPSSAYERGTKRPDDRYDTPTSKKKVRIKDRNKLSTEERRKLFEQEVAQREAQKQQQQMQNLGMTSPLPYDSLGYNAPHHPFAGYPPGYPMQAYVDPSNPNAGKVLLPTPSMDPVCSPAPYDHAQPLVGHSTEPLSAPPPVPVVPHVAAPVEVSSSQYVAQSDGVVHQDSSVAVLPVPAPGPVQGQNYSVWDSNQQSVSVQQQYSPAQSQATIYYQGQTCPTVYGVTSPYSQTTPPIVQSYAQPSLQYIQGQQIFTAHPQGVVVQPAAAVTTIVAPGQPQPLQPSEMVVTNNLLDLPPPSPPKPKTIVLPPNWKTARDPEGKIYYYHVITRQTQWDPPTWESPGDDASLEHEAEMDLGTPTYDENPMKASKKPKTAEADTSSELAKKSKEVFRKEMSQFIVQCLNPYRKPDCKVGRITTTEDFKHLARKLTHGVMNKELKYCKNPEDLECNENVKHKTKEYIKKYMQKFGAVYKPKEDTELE", "UniProt O00444, sequence (whole entry, looked up)": "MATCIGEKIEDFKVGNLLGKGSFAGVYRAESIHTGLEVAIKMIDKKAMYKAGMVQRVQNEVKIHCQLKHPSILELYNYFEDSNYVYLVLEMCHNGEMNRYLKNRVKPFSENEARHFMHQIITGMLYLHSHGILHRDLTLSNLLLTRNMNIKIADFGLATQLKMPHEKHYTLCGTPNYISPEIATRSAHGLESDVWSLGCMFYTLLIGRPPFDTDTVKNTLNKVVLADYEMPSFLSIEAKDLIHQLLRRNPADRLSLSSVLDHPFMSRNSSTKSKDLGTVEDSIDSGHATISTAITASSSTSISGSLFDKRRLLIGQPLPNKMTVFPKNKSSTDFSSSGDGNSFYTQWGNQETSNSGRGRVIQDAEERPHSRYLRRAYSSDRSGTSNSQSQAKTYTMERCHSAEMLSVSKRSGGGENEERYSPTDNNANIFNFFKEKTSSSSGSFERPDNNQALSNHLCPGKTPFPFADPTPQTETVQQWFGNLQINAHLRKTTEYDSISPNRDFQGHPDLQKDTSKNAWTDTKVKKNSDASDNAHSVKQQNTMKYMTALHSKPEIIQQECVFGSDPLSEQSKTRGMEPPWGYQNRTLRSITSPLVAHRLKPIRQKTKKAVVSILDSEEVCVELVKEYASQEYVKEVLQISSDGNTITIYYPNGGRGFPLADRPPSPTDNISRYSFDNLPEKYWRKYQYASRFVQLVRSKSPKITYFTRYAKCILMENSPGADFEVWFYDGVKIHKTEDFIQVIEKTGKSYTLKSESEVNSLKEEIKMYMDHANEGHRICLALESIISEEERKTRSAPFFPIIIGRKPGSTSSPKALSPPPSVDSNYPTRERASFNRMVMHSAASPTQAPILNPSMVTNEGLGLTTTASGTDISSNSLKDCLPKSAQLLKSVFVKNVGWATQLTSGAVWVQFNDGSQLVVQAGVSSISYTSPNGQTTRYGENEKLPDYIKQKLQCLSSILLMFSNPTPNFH", "UniProt O00519, sequence (whole entry, looked up)": "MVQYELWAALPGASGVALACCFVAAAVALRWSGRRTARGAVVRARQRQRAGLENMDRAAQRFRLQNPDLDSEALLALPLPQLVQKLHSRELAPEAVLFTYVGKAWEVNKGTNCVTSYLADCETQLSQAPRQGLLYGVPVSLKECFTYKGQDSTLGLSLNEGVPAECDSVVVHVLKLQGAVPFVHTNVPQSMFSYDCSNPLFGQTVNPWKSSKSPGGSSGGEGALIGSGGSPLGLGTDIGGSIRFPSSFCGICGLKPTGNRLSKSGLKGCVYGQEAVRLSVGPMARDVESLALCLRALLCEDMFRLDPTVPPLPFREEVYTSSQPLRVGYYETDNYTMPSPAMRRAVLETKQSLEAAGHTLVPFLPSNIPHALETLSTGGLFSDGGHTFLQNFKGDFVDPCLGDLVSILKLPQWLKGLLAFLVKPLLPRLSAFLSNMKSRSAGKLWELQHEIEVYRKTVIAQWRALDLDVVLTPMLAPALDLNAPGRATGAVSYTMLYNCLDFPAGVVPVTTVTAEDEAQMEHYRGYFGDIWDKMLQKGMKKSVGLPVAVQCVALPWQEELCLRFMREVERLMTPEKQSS", "UniProt P35372, sequence (whole entry, looked up)": "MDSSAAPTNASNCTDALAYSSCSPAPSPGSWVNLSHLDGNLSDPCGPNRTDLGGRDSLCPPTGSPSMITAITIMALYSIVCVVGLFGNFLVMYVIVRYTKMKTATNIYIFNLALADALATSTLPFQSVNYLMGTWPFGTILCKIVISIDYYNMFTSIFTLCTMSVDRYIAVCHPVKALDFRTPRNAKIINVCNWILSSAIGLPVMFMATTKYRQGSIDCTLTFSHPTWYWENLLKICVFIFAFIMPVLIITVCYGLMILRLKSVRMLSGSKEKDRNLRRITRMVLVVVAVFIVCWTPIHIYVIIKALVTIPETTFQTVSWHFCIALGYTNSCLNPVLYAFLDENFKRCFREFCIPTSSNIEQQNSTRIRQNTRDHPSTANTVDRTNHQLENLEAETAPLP"}
{"Substance": "Cc1cc(/C=C/C#N)cc(C)c1Oc1nc(Nc2ccc(C#N)c(F)c2)nc2ccsc12", "tested on": "KCNH2 (Homo sapiens, UniProt Q12809)", "test": "ion current, inhibitor", "conditions": "1 µM", "endpoint": "inhibition", "result": "8.01%"}
{"Substance": "CN1CC[C@]23c4c5ccc(O)c4O[C@H]2[C@@H](OS(=O)(=O)O)C=C[C@H]3[C@H]1C5", "tested on": "OPRM1 (Homo sapiens, UniProt P35372)", "endpoint": "Ki", "result": "0.98 nM"}
{"Substance": "O=C(Nc1ccc(-c2cnc3ccccc3c2)cc1)C1CCN(CC2CCCCC2)CC1", "tested on": "EPHX2", "endpoint": "IC50", "result": "684 nM"}
{"Substance": "N#Cc1ccccc1", "tested on": "nitrilase (Rhodococcus rhodochrous, UniProt A4LA85, Y142A)", "test": "ammonia release", "conditions": "pH 7.5, 25 °C, 10% methanol", "endpoint": "Km", "result": "1580 ± 150 µM"}
{"Substance": "O=C(Nc1ccc(-c2ccc3ccccc3n2)cc1)C1CCN(Cc2ccccc2F)CC1", "tested on": "EPHX2", "endpoint": "IC50", "result": "287 nM"}
{"Substance": "O=C(Nc1ccc(OC(F)(F)F)cc1)NC1CCN(c2c(NS(=O)(=O)Cc3ccccc3)c(=O)c2=O)CC1", "tested on": "EPHX2", "endpoint": "IC50", "result": "4.8 ± 0.2 nM"}
{"Substance": "nociceptin", "tested on": "Nociceptin receptor (OPRL1, Homo sapiens, UniProt P41146)", "test": "cAMP level, agonist", "conditions": "human receptor, cells", "endpoint": "EC50", "result": "0.19 ± 0.04 nM"}
{"Substance": "Cc1ccc(S(=O)(=O)Nc2c(N3CCC(NC(=O)Nc4ccc(F)c(C)c4)CC3)c(=O)c2=O)cc1", "tested on": "Ephx2 (Mus musculus, UniProt P34914)", "endpoint": "IC50", "result": "656 ± 72.4 nM"}
{"Substance": "CC[C@H](C)[C@H](NC(=O)[C@H](CC(=O)O)NC(=O)[C@H](CC(C)C)NC(=O)[C@H](Cc1ccc(OP(=O)(O)O)cc1)NC(=O)[C@@H](NC(=O)[C@@H]1CCCN1C(=O)[C@H](CO)NC(=O)[C@H](C)NC(=O)[C@H](CCCCN)NC(=O)[C@H](C)NC(=O)[C@H](CC(C)C)NC(=O)[C@H](CC(N)=O)NC(=O)[C@H](CCC(N)=O)NC(=O)c1ccc2c(c1)C(=O)OC21c2ccc(N(C)C)cc2Oc2cc(N(C)C)ccc21)C(C)C)C(=O)N[C@@H](CC(C)C)C(=O)NCC(=O)N[C@@H](CC(=O)O)C(=O)O", "tested on": "CBL SH2 domain", "conditions": "human protein", "endpoint": "Kd", "result": "1530 nM"}
{"Substance": "O=c1[nH]cnc2c(CN3C[C@H](CO)[C@@H](O)C3)c[nH]c12", "tested on": "purine nucleoside phosphorylase (Kluyveromyces lactis, UniProt Q6CSZ6)", "endpoint": "Ki", "result": "0.155 ± 0.0058 nM"}
{"Substance": "O=C(O)CCCC[C@@H]1SC[C@@H]2NC(=O)N[C@@H]21", "tested on": "SETD2 (Homo sapiens, UniProt Q9BYW2)", "test": "inhibitor", "conditions": "apparent, bead displacement artifact", "endpoint": "IC50", "result": "1330 nM and 1300 to 1700 nM"}
{"Substance": "CC(C)C[C@H](NC(=O)[C@H](CC(C)C)NC(=O)[C@H](CO)NC(=O)[C@@H]1CCCN1C(=O)[C@H](Cc1ccc(OP(=O)(O)O)cc1)NC(=O)[C@@H]1CCCN1C(=O)[C@H](C)NC(=O)[C@@H](NC(=O)[C@H](CS)NC(=O)[C@H](CCCCN)NC(=O)[C@@H](NC(=O)[C@H](CC(N)=O)NC(=O)[C@@H](NC(=O)[C@H](Cc1ccc(O)cc1)NC(=O)c1ccc2c(c1)C(=O)OC21c2ccc(N(C)C)cc2Oc2cc(N(C)C)ccc21)C(C)C)C(C)C)C(C)C)C(=O)N[C@@H](CO)C(=O)N[C@@H](CO)C(=O)N[C@@H](CCC(=O)O)C(=O)N[C@@H](CC(=O)O)C(=O)O", "tested on": "CBL SH2 domain", "conditions": "human protein", "endpoint": "Kd", "result": "1190 nM"}
{"Substance": "O=C(Nc1ccc(F)c(Cl)c1)NC1CCN(c2c(NS(=O)(=O)Cc3ccccc3)c(=O)c2=O)CC1", "tested on": "EPHX2", "endpoint": "IC50", "result": "18 ± 2 nM"}
{"Substance": "C(#Cc1c[nH]c2nccc(-c3ccncc3)c12)c1cccnc1", "system": "C57BL/6 mouse, male", "conditions": "oral, 20 mg/kg", "endpoint": "half-life", "result": "2.97 ± 2.13 h"}
{"Substance": "Cc1ccc(CN2CCC(C(=O)Nc3ccc(-c4cnc5ccccc5c4)cc3)CC2)cc1", "tested on": "FAAH (Homo sapiens, UniProt O00519)", "endpoint": "IC50", "result": "81.4 nM"}
{"Substance": "Cc1cc(OCc2nnc(SC3CCCC3)n2-c2cccnc2)ccc1-c1ccc(S(C)(=O)=O)cc1", "tested on": "UACC-62", "endpoint": "GI50", "result": "1050 nM"}
{"Substance": "CC(C)C[C@H](NC(=O)[C@@H]1CCCN1)C(=O)N[C@@H](Cc1c[nH]cn1)C(=O)N[C@@H](CO)C(=O)N[C@H](C(=O)N[C@@H](C)C(=O)O)[C@@H](C)OP(=O)(O)O", "tested on": "Serine/threonine-protein kinase PLK4, PB3 domain (PLK4, Homo sapiens, UniProt O00444)", "test": "binding, microscale thermophoresis", "conditions": "pH 8.0", "endpoint": "Kd", "result": "no binding"}
{"Substance": "Cc1ccccc1CN1CCC(C(=O)Nc2ccc(-c3cnc4ccccc4c3)cc2)CC1", "tested on": "ache (Electrophorus electricus, UniProt O42275)", "endpoint": "IC50", "result": "7970 nM"}
{"Substance": "O=C(Nc1ccc(Cl)c(F)c1)NC1CCN(c2c(NS(=O)(=O)Cc3ccccc3)c(=O)c2=O)CC1", "tested on": "EPHX2", "endpoint": "IC50", "result": "19.5 ± 2.6 nM"}
{"note": "Excerpt of the above:"}
{"Substance": "CC(C)C[C@H](NC(=O)[C@H](CC(C)C)NC(=O)[C@H](CO)NC(=O)[C@@H]1CCCN1C(=O)[C@H](Cc1ccc(OP(=O)(O)O)cc1)NC(=O)[C@@H]1CCCN1C(=O)[C@H](C)NC(=O)[C@@H](NC(=O)[C@H](CS)NC(=O)[C@H](CCCCN)NC(=O)[C@@H](NC(=O)[C@H](CC(N)=O)NC(=O)[C@@H](NC(=O)[C@H](Cc1ccc(O)cc1)NC(=O)c1ccc2c(c1)C(=O)OC21c2ccc(N(C)C)cc2Oc2cc(N(C)C)ccc21)C(C)C)C(C)C)C(C)C)C(=O)N[C@@H](CO)C(=O)N[C@@H](CO)C(=O)N[C@@H](CCC(=O)O)C(=O)N[C@@H](CC(=O)O)C(=O)O", "tested on": "CBL SH2 domain", "conditions": "human protein", "endpoint": "Kd", "result": "1190 nM"}
{"Substance": "O=C(Nc1ccc(F)c(Cl)c1)NC1CCN(c2c(NS(=O)(=O)Cc3ccccc3)c(=O)c2=O)CC1", "tested on": "EPHX2", "endpoint": "IC50", "result": "18 ± 2 nM"}
{"Substance": "C(#Cc1c[nH]c2nccc(-c3ccncc3)c12)c1cccnc1", "system": "C57BL/6 mouse, male", "conditions": "oral, 20 mg/kg", "endpoint": "half-life", "result": "2.97 ± 2.13 h"}
